Published values of several laboratories.
Protocols differ between the studies behind these lines. ± gives the spread as reported. In brackets after ≈: the same amount, converted by molar mass.
TDP1: Tyrosyl-DNA phosphodiesterase 1 (TDP1, Homo sapiens, UniProt Q9NUW8)
UniProt Q9NUW8, sequence (whole entry, looked up): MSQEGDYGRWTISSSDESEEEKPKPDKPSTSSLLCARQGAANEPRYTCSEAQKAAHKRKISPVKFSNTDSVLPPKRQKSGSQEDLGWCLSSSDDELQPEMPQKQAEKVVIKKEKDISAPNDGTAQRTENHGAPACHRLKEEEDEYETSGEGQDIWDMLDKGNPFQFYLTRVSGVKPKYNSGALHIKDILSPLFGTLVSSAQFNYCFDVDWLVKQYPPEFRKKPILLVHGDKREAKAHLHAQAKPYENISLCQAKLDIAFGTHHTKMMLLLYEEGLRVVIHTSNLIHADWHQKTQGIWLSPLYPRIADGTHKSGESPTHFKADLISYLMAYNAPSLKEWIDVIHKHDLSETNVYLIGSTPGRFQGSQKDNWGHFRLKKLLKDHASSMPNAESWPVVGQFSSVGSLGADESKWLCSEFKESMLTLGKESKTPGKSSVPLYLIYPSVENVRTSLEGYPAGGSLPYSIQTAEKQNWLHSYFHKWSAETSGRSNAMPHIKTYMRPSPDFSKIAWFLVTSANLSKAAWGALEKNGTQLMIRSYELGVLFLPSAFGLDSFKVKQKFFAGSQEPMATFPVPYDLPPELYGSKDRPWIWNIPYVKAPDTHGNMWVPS

| Structure (SMILES) | tested on | test | test system | conditions | how to read | quantity | result |
| --- | --- | --- | --- | --- | --- | --- | --- |
| FC(F)(F)c1cccc(CNc2nc(NC3CCN(Cc4ccccc4)CC3)c3nc[nH]c3n2)c1 | Cryptococcus neoformans | RNA-seq, measured: ASP1 (CNAG_02161) | wild type | 48 µg/mL, 3 h | relative to: untreated wild type | log2 fold change | -0.404 |
| CO[C@@H]1[C@@H](OC)[C@H]2O[C@H]3[C@H](OC)[C@@H](OC)[C@@H](O[C@H]4[C@H](OC)[C@@H](OC)[C@@H](O[C@H]5[C@H](OC)[C@@H](OC)[C@@H](O[C@H]6[C@H](OC)[C@@H](OC)[C@@H](O[C@H]7[C@H](OC)[C@@H](OC)[C@@H](O[C@H]8[C@H](OC)[C@@H](OC)[C@@H](O[C@@H]1[C@@H](Cn1cc(CCCC(=O)N[C@H]9CCOC9=O)nn1)O2)O[C@@H]8Cn1cc(CCCC(=O)N[C@H]2CCOC2=O)nn1)O[C@@H]7Cn1cc(CCCC(=O)N[C@H]2CCOC2=O)nn1)O[C@@H]6Cn1cc(CCCC(=O)N[C@H]2CCOC2=O)nn1)O[C@@H]5Cn1cc(CCCC(=O)N[C@H]2CCOC2=O)nn1)O[C@@H]4Cn1cc(CCCC(=O)N[C@H]2CCOC2=O)nn1)O[C@@H]3Cn1cc(CCCC(=O)N[C@H]2CCOC2=O)nn1 | Escherichia coli | LuxR reporter, antagonist | DH5α sensor strain | 4 µM, with: OHHL 200 nM |  | inhibition | 19 ± 1% |
| O=C(O)c1ccc(Nc2c(-c3ccc(CON=Cc4cccc(NC(=O)C(F)(F)F)c4)cc3)nc3cc(-c4ccccc4)ccn23)cc1 (mixture of isomers) | TDP1 | enzyme activity, inhibitor |  | 100 µM, unpurified compound |  | inhibition | 53.8% |
| Nc1ncc(-c2cc(-c3cnn(CC(F)(F)F)c3)ncc2F)nc1C(=O)NC1CNCC(F)C1 (stereo not drawn) | ARK5 | KINOMEscan |  | 1 µM | relative to: DMSO control | remaining binding | 93% |
| CCCCCCCCCC(=O)N[C@@H](Cc1c[nH]c2ccccc12)C(=O)N[C@H](CC(N)=O)C(=O)N[C@@H](CC(=O)O)C(=O)N[C@@H]1C(=O)NCC(=O)N[C@@H](CCCNC(=O)OC2/C=C/CCCCC2)C(=O)N[C@@H](CC(=O)O)C(=O)N[C@H](C)C(=O)N[C@@H](CC(=O)O)C(=O)NCC(=O)N[C@H](CO)C(=O)N[C@@H]([C@H](C)CC(=O)O)C(=O)N[C@@H](CC(=O)c2ccccc2N)C(=O)O[C@@H]1C (stereo partly drawn) | Staphylococcus aureus | planktonic bacterial growth, isothermal microcalorimetry | MSSA | 1.5 µg/mL, 24 h, 37 °C |  | peak heat flow | 0 µW |
| Cc1cccc(Nc2n[nH]c3nc(-c4ccc(F)cc4F)nc(N)c23)c1 | rhinovirus A2 | viral cytopathic effect | HeLa |  |  | IC50 | 11.9 µM |
| CC(=O)O[C@@H]1[C@@H](OC(C)=O)[C@H](Sc2sc(C(=O)c3ccc(Br)cc3)c(N)c2-c2nc3ccccc3s2)OC[C@H]1OC(C)=O | coxsackievirus B4 | plaque reduction |  | non-toxic concentration |  | viral titre reduction | 60% |
| CNCc1ccc2c(c1)C[C@H](CNC(=N)N)[C@H]2NC(=O)C(=O)Nc1ccc(Cl)c(F)c1 | Human immunodeficiency virus 1 | viral infection, pseudovirus neutralization | TZM-bl, 191084 B7-19 | clade A transmitted/founder |  | IC80 | 36.2 µM |
| Cc1ccc(-c2nc(N)c3c(Nc4ccc(F)cc4)n[nH]c3n2)cc1F | rhinovirus A2 | viral cytopathic effect | HeLa |  |  | IC50 | 2.55 µM |
| CC(C)(C)NCC(SS(=O)(=O)O)c1ccccc1 (stereo not drawn) | Schistosoma mansoni | perfusion day 52 | infected Swiss Webster mice | 400 mg/kg single dose, 1248 h, dosed day 7 post-infection |  | liver weight | 4.19 g |
| CCOC(=O)c1cc(-c2nc3ccccc3s2)c(=O)n(NS(=O)(=O)c2ccc(Cl)cc2)c1N | human adenovirus 7 | viral replication, plaque | HEp-2 | non-toxic dose, mean of three titres |  | plaque reduction | 0% |
| C=C(NC(=O)c1csc(-c2nc3c(cc2O)-c2nc(cs2)C(=O)NC(C(C)O)C(=O)NC(=C(C)OC)c2nc(cs2)C(=O)NC2c4nc(cs4)C(=O)NC(COC(=O)c4c5c6c(cccc6n4O)COC(=O)C(OC4CC(C)(O)C(N(C)C)C(C)O4)C2OC5)c2nc-3cs2)n1)C(N)=O (stereo not drawn) | Staphylococcus aureus |  | ATCC 43300 MRSA | 2 x MIC, 3 h exposure |  | post-antibiotic effect | 1.44 ± 0.3 h |
| C[C@@H]1C(=O)O[C@@H](C)/C=C/C=C\[C@@H](C)[C@@H]2C=C[C@@H]3C[C@@]4(C)O[C@H]4[C@@H](C)[C@H]3[C@@H]2C(=O)C(Cl)(Cl)C1=O | Staphylococcus aureus |  | MSSA and MRSA clinical isolates | 180 isolates |  | MIC90 | 0.1 mg/L (≈ 0.202 µM) |
| COC1CN([C@H]2CC[C@H]([C@@]3(C)Oc4c(Cl)cc(C(=O)NCc5c(SC)cc(C)[nH]c5=O)c(C)c4O3)CC2)C1 |  | RNA-seq, measured: S100A10 | human, whole blood | dose not given, 24 h | relative to: pretreatment baseline | log2 fold change | 1.43 |
| Fc1ccc2c(c1)c1nc3ccc(Br)cc3c-1cn2Cc1cn(-c2ccccc2I)nn1 | Giardia duodenalis trophozoites | UHPLC-Q-TOF-MS metabolomics, measured: glycochenodeoxycholic acid |  | IC50, 0.0185 h | relative to: 0.25% DMSO | fold change | 1.58 |
| CO[C@@H]1OC[C@@H](O)[C@H](O)[C@H]1O | Helicobacter pylori | microbial growth, broth dilution |  | 0.48 µg/mL |  | inhibition | 0% |
| CC(CCCOC(=O)CCC[N+](C)(C)C)C1CCC2C3C(OC(=O)CCC[N+](C)(C)C)CC4CC(OC(=O)CCC[N+](C)(C)C)CCC4(C)C3CC(OC(=O)CCC[N+](C)(C)C)C12C (stereo not drawn) | Escherichia coli | microbial growth, disc diffusion | ATCC25922 | 250 µg/disc, 24 h |  | inhibition zone | 10 mm |
| Cc1cc(C(=O)Nc2nc3cccc(C)c3n2[C@H]2CCCCN(C(=O)/C=C/CN(C)C)C2)ccn1 | Trypanosoma brucei brucei |  | Lister 427 | 0.21 µM, 0 h, kill kinetics |  | proliferation | 100% |
| Cc1ncsc1-c1ccc(C(C)NC(=O)C2CC(O)CN2C(=O)C(NC(=O)CCCCCCCCCCN2CCCC(Nc3ncc(Cl)c(Nc4ccccc4S(=O)(=O)C(C)C)n3)C2)C(C)(C)C)cc1 (stereo not drawn) | 22Rv1 | RNA-seq, measured: MLH3 mRNA |  | concentration not given | relative to: DMSO | log2 fold change | -1.27 |
| CC(=O)OC[C@H]1O[C@@H](Sc2sc(C(=O)c3ccc(Cl)cc3)c(N)c2-c2nc3ccccc3s2)[C@H](OC(C)=O)[C@@H](OC(C)=O)[C@@H]1OC(C)=O | coxsackievirus B4 | plaque reduction |  | non-toxic concentration |  | viral titre reduction | 20% |
| Cc1ccc(S(=O)(=O)Nn2c3c(cc(-c4nc5ccccc5s4)c2=O)CCCCCC3)cc1 | coxsackievirus B4 | viral replication, plaque | BGM | non-toxic dose, mean of three titres |  | plaque reduction | 60% |
| CNS(=O)(=O)Nc1nccc(Cc2c(C)c3ccc(Oc4ncccc4F)cc3oc2=O)c1F | 8505C | cell viability |  | 7 days |  | IC50 | > 1 µM |
| CC(=O)OC[C@H]1O[C@@H](Sc2sc(C(=O)c3ccc(C)cc3)c(N)c2-c2nc3ccccc3s2)[C@H](OC(C)=O)[C@@H](OC(C)=O)[C@@H]1OC(C)=O | coxsackievirus B4 | plaque reduction |  | non-toxic concentration |  | viral titre reduction | 30% |
| CC(C)[C@@H]1NC(=O)[C@@H](CCCNC(=N)N)NC(=O)[C@H]([C@@H](C)O)NC(=O)[C@@H](CCCN)NC(=O)[C@H](Cc2ccccc2)NC(=O)[C@@H](Cc2ccc(F)cc2)NC1=O | Balamuthia mandrillaris | parasite growth, ATP luminescence |  |  |  | IC90 | 17.9 µM |
| CC(=O)ON=Cc1c(C)c(C=NOCc2ccc(-c3nc4cc(-c5ccccc5)ccn4c3Nc3ccc(C(=O)O)cc3)cc2)n2ccccc12 | TDP1 | enzyme activity, inhibitor |  | 100 µM, unpurified oxime |  | inhibition | 99% |
| N#Cc1ccc(Nc2n[nH]c3nc(-c4ccccc4)nc(N)c23)cc1 | rhinovirus A2 | viral cytopathic effect | HeLa |  |  | IC50 | 137 µM |
| CC=C(C)C(=O)OC1CC2C(C=C(C)C3C(OC(C)=O)CC(=O)C13C)OC(=O)C2C (stereo not drawn) | Helicobacter pylori | microbial growth, broth dilution |  | 62.5 µg/mL |  | inhibition | 0% |
| CCCCCCn1cc[n+](CCCCCCOc2cc(OCCCCCC[n+]3ccn(CCCCCC)c3)cc(OCCCCCC[n+]3ccn(CCCCCC)c3)c2)c1.[Br-].[Br-].[Br-] | Enterococcus faecalis |  | OG1RF |  |  | MIC | 0.5 µM |
| CC(=O)OC[C@H]1O[C@@H](Sc2sc(C(=O)c3ccc(Br)cc3)c(N)c2-c2nc3ccccc3s2)[C@H](OC(C)=O)[C@@H](OC(C)=O)[C@@H]1OC(C)=O | human adenovirus 7 | plaque reduction |  | non-toxic dose NG, mean over three titres |  | viral reduction | 30% |
| C/C=C(/C)C(=O)O[C@@H]1C=C(C)CC[C@]2(O)[C@@H](C(C)C)CC(=O)[C@]12C | Helicobacter pylori | microbial growth, broth dilution |  | 7.81 µg/mL |  | inhibition | 0% |

For quick reference, copied from above:
| Structure (SMILES) | tested on | test | test system | conditions | how to read | quantity | result |
| --- | --- | --- | --- | --- | --- | --- | --- |
| CC(=O)OC[C@H]1O[C@@H](Sc2sc(C(=O)c3ccc(Cl)cc3)c(N)c2-c2nc3ccccc3s2)[C@H](OC(C)=O)[C@@H](OC(C)=O)[C@@H]1OC(C)=O | coxsackievirus B4 | plaque reduction |  | non-toxic concentration |  | viral titre reduction | 20% |
| Cc1ccc(S(=O)(=O)Nn2c3c(cc(-c4nc5ccccc5s4)c2=O)CCCCCC3)cc1 | coxsackievirus B4 | viral replication, plaque | BGM | non-toxic dose, mean of three titres |  | plaque reduction | 60% |
| CNS(=O)(=O)Nc1nccc(Cc2c(C)c3ccc(Oc4ncccc4F)cc3oc2=O)c1F | 8505C | cell viability |  | 7 days |  | IC50 | > 1 µM |
